{"data": "Measurements collected from several papers", "note": "Parts stem from different laboratories: compare values within a part only. Several values in a cell are separate wells, animals, samples, runs or records."}
{"data": "Series 1", "target": "RNA binding protein fox-1 homolog 2, RRM domain, GST-SBP tag (RBFOX2, Homo sapiens, UniProt O43251-10, residues 100-194)", "technique": "RNA Bind-n-Seq", "molecule type": "RNA", "sample": "in vitro", "concentration": "365 nM", "notes": "natural RNA segment, single round, ends assumed", "reference": "no-protein control", "reading": "higher = stronger binding", "all sequences stand within": "GGGAGUUCUACAGUCCGACGAUC … UGGAAUUCUCGGGUGCCAA", "Residues (chain)": "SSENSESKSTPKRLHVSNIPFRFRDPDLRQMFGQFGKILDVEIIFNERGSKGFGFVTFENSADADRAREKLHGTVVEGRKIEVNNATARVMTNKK"}
{"Strand": "GUUUGGGGCAGUGGGGAGCAAACCUAGAUAAGGACCUGUUUGGGGCAGCAGGGAGCAAAAUCUCCUUUAACAACCAAGCAGUUCCUCAUUCACAUCAACAGAGCGAGGCU", "RBNS enrichment (R)": 0.245}
{"Strand": "GUAUUGUUUGGCUUUCUGAGGGAUGUUAGUGCCAAACUUGUAUAGGAGUGGGGUGCUGUCUUCCACUGACACCCAGGUCCAGAAUCCUUGGUCUUGAGCCCCUGUCCUUU", "RBNS enrichment (R)": 0.39}
{"Strand": "UUAAAAAAGCUCAAUGCAUUGUCUUGUGGAGGAUGAAUAGAUGUGAUCACUGAGACAGCCACUUGGUUUUUGGCUCUUUCAGAGAGGUCUCAGGUUCUUUCCAUGCAGAC", "RBNS enrichment (R)": 0.885}
{"Strand": "GUAGUGAUUCUUGGAAAGAAUUUGAGGUCCCCAAAGGUGUAUUUUUGGGCAAAUGAAACCAUAAACUCCGACUGGCUUCUGUAGAUGCCAAAGGGCUCUUUUUCAGCUAA", "RBNS enrichment (R)": 0.294}
{"Strand": "AAAUUCAAUUUUAAGACCUCCCUGUGGUAAUUGGGAGAGGUAGCCGAGUCACACCCGGUGGCUCUGGUAUGAAUUCACCCGAAGCGCUUCUGCACCAACUCACCUGGCCG", "RBNS enrichment (R)": 0.497}
{"Strand": "UGAAAAAUGGGUGCUAGUGGUAAUUGCUUUGUGGCUUAGUAAACUACUCUGUGGAUGAUUUCCAAACAUUCAAAGCCAAUAGCCUUGUUAUUAACAAGAUAUUUUGAGUA", "RBNS enrichment (R)": 0.417}
{"Strand": "AUCAUGGGACAUCAUGGGAUGGCAGCUAGAUAGCAUGAAACAAUUUAUCUUCUCAUAUUUGACAAAUUUGUGAUAGAAAUAAUAAUUCCCACAUCUACCGGUACUUGCCU", "RBNS enrichment (R)": 3.35}
{"Strand": "GUUGGUCAGAAUCUGUAAAGUACUAGCACCUAUCCCUUUGGAGCAGCAAUCAAAUGAUUUAGUCUUGUAAUAAAAUUGCAUUUUAAUUAUCUUAGGUGCUUUUUUUUUCU", "RBNS enrichment (R)": 0.937}
{"data": "Series 2", "cell line": "HEK-293T", "observed": "pseudovirus infection", "organism": "VSV pseudotyped with SARS-CoV-2 spike", "concentration": "10 µM", "time": "16 h", "reference": "vehicle-treated"}
{"Compound": "C[C@@H]1C[C@H]2[C@@H]3CCC4=CC(=O)C=C[C@]4(C)[C@@]3(Cl)[C@@H](O)C[C@]2(C)[C@@]1(OC(=O)c1ccco1)C(=O)CCl", "GFP-positive cells [%]": 54.1}
{"Compound": "CCc1cc2c(cc1N1CCC(N3CCOCC3)CC1)C(C)(C)c1[nH]c3cc(C#N)ccc3c1C2=O", "GFP-positive cells [%]": 86.9}
{"Compound": "CC(=O)/N=c1/sc(S(N)(=O)=O)nn1C", "GFP-positive cells [%]": 104}
{"Compound": "COC(=O)CCc1ccc(OCC(O)CNC(C)C)cc1 (stereo not drawn)", "GFP-positive cells [%]": 93.8}
{"data": "Series 3", "target": "Replicase polyprotein 1ab, main protease (rep, Severe acute respiratory syndrome coronavirus 2, UniProt P0DTD1)", "observed": "enzyme activity", "action": "inhibitor", "concentration": "20 µM", "notes": "hit confirmation, no DTT"}
{"SMILES": "CCC[C@H](NC(=O)/C(C#N)=C/c1cccc(Br)n1)c1ccccc1", "inhibition [%]": 59.4}
{"SMILES": "COC(=O)CC[C@H](NC(=O)[C@H](CC(=O)OC)NC(=O)OCc1ccccc1)C(=O)N[C@H](C(=O)N[C@@H](CC(=O)OC)C(=O)CF)C(C)C", "inhibition [%]": 110}
{"SMILES": "NC[C@H](O)c1ccc(O)c(O)c1", "inhibition [%]": 75.2}
{"SMILES": "C[C@H]1COC2=C1C(=O)C(=O)c1c2ccc2c1CCCC2(C)C", "inhibition [%]": 92.3}
{"data": "Series 4", "target": "Fragile X messenger ribonucleoprotein 1, C-terminal low-complexity region (Fmr1, Mus musculus, UniProt P35922)", "technique": "RNA Bind-n-Seq", "molecule type": "RNA", "sample": "in vitro", "concentration": "200 nM", "notes": "whole 134-nt RNA, ends assumed", "added": "150 mM KCl", "reference": "input library", "reading": "higher = stronger binding", "all sequences stand within": "GGGAGUUCUACAGUCCGACGAUC … UGGAAUUCUCGGGUGUCAAGG"}
{"Strand": "CCUCAAGUCCUGUGCUACACAUCGUAUGUACCGAAUCGGCCGGCCGGGCCGGGAAAGUAUUAUGUUACGCCGUUCGGAUCUGCACUUCCA", "log2 enrichment": -0.187}
{"Strand": "AAGUCCUGUGCUACACAUCGUAUGUACCGAAUCGGGGAAAGGGAAAGGGGAAAGGGAAAGUAUUAUGUUACGCCGUUCGGAUCUGCACUU", "log2 enrichment": 0.255}
{"Strand": "UAUCAGGAGGGCAGACUUCAAAAGCUACUAAAAAUGAACGGCCCUGAAGAUCUUCCCAAGUCCUAUGACUAUGACCUUAUCAUCAUUGGA", "log2 enrichment": -1.23}
{"Strand": "GCAGGAAGUAAAAACAAAUGGAAAUGCUUCGGAUAGUGGCAGGGGUGGGGGUUGCUAAGGAAAGUGUGGGAUGGGAGUGGGUAAAGAGUU", "log2 enrichment": 0.202}
{"Strand": "GCAGGAAGUAAAAACAAAUGGAAAUGCUUCGGAUAGUGGCAGGGGUGGGGGUUGCUAAGGGAAGGGUGGGAUGGGAGUGGGUAAAGAGUU", "log2 enrichment": 0.452}
{"Strand": "CAAGUCCUGUGCUACACAUCGUAUGUACCGAAUCGGGUUUUUGGGUUUGGGUGGGAAAGUAUUAUGUUACGCCGUUCGGAUCUGCACUUC", "log2 enrichment": 1.2}
{"Strand": "CUCAAGUCCUGUGCUACACAUCGUAUGUACCGAAUCGGGGAAGGAAGGAAGGGAAAGUAUUAUGUUACGCCGUUCGGAUCUGCACUUCCA", "log2 enrichment": -0.112}
{"Strand": "UAACUUUGGAGGAGGAUCUGAUGGAUAUGGCAGUGGACGUGGAUUUGGGGAUGGCUAUAAUGGGUAUGGAGGAGGACCUGGAGGUGGCAA", "log2 enrichment": 0.341}
{"data": "Series 5", "target": "Replicase polyprotein 1ab, nsp13 helicase (rep, Severe acute respiratory syndrome coronavirus 2, UniProt P0DTD1)", "action": "inhibitor", "concentration": "20 µM"}
{"Structure (SMILES)": "CCC(O)(CC(N)=O)c1ccccc1 (stereo not drawn)", "inhibition": "0.08%"}
{"Structure (SMILES)": "O=C1c2cc(Cl)ccc2OC2CCON12 (stereo not drawn)", "inhibition": "-0.1%"}
{"Structure (SMILES)": "CO/N=C1\\CN(c2nc3c(cc2F)c(=O)c(C(=O)O)cn3C2CC2)CC1CN (stereo not drawn)", "inhibition": "9.34%"}
{"Structure (SMILES)": "CC(C)(C#N)c1ccc(N2C(=O)OCc3cnc4ccc(-c5cnc6ccccc6c5)cc4c32)cc1", "inhibition": "-0.09%"}
{"Structure (SMILES)": "Cc1ccc2c(c1)[C@H]1CN(C)CC[C@H]1N2", "inhibition": "-1.22%"}
{"Structure (SMILES)": "O=C1NC(O)CCN1[C@@H]1O[C@H](CO)[C@@H](O)[C@H]1O (stereo partly drawn)", "inhibition": "3.63%"}
{"Structure (SMILES)": "CCCCn1ccc(N2CCC(c3ccccc3)CC2)c(Cl)c1=O", "inhibition": "6.99%"}
{"Structure (SMILES)": "Nc1nncs1", "inhibition": "11.7%"}
{"Structure (SMILES)": "Oc1ccc(Cl)c2cccnc12", "inhibition": "-4.91%"}
{"Structure (SMILES)": "CN(C)Cc1ccc(-c2nc3cccc4c3n2CCNC4=O)cc1", "inhibition": "6.83%"}
{"Structure (SMILES)": "CC(=O)O[C@@H]1C[C@H]2C(C)(C)C(=O)C=C[C@]2(C)[C@H]2CC[C@@]3(C)[C@H](c4ccoc4)OC(=O)[C@H]4O[C@]43[C@@]21C", "inhibition": "0.73%"}
{"Structure (SMILES)": "Cc1nc(C#Cc2ccnc(Cl)c2)c(C)n1-c1ccc(F)cc1", "inhibition": "-1.57%"}
{"Structure (SMILES)": "CC(C)c1c2cc(-c3ccnc(N[C@H]4CC[C@H](NC5CCOCC5)CC4)n3)ccc2nn1C", "inhibition": "-6.15%"}
{"Structure (SMILES)": "N#Cc1cccc(C(=O)Nc2cc(-c3ccccc3)nn2-c2ccccc2)c1", "inhibition": "1.54%"}
{"Structure (SMILES)": "CN1C(CSCC(F)(F)F)Nc2cc(Cl)c(S(N)(=O)=O)cc2S1(=O)=O (stereo not drawn)", "inhibition": "1.21%"}
{"Structure (SMILES)": "CC1=C(C)C(=O)C(C(CCCCCC(=O)O)c2ccccc2)=C(C)C1=O (stereo not drawn)", "inhibition": "5.99%"}
{"Structure (SMILES)": "CCc1noc(C)c1-c1[nH]c2ccccc2c1C(O)CN(C)C (stereo not drawn)", "inhibition": "-0.62%"}
{"Structure (SMILES)": "CCOC(=O)c1ccc(OC(=O)CCCCCNC(=N)N)cc1", "inhibition": "4.68%"}
{"Structure (SMILES)": "Cn1ncc(Cl)c1-c1cc(C(=O)N[C@H](CN)Cc2ccc(F)c(F)c2)oc1Cl", "inhibition": "6.86%"}
{"Structure (SMILES)": "CC(C)CC(N(C)C)C1(c2ccc(Cl)cc2)CCC1 (stereo not drawn)", "inhibition": "2.61%"}
{"Structure (SMILES)": "Cc1nc(-c2cn3c(n2)-c2ccc(-c4cnn(C(C)(C)C(N)=O)c4)cc2OCC3)n(C(C)C)n1", "inhibition": "3.97%"}
{"Structure (SMILES)": "NC(=O)c1cccc(-c2cc(Nc3ccc(OC(F)(F)F)cc3)ncn2)c1", "inhibition": "1.17%"}
{"Structure (SMILES)": "COc1cc(N2CCC(N3CCN(C)CC3)CC2)ccc1Nc1ncc(Cl)c(Nc2ccccc2P(C)(C)=O)n1", "inhibition": "13.6% and 5.3%"}
{"Structure (SMILES)": "CC(=O)c1ccc2c(c1)[C@H](NC(=O)c1ccc(F)c(Cl)c1)[C@H](O)C(C)(C)O2", "inhibition": "0.65%"}
{"note": "A few entries again (series 5):"}
{"Structure (SMILES)": "CN(C)Cc1ccc(-c2nc3cccc4c3n2CCNC4=O)cc1", "inhibition": "6.83%"}
{"Structure (SMILES)": "Cc1nc(C#Cc2ccnc(Cl)c2)c(C)n1-c1ccc(F)cc1", "inhibition": "-1.57%"}
{"Structure (SMILES)": "CC(=O)c1ccc2c(c1)[C@H](NC(=O)c1ccc(F)c(Cl)c1)[C@H](O)C(C)(C)O2", "inhibition": "0.65%"}
{"Structure (SMILES)": "CCCCn1ccc(N2CCC(c3ccccc3)CC2)c(Cl)c1=O", "inhibition": "6.99%"}
